Assay results pooled from the literature.
Protocols differ between the studies behind these lines.

| SMILES | organism | assay | system | setting | MIC |
| --- | --- | --- | --- | --- | --- |
| N=C(N)NCCC[C@@H]1NC(=O)[C@H](CCCNC(=N)N)NC(=O)[C@H](CCCNC(=N)N)NC(=O)[C@H](CCCNC(=N)N)NC(=O)[C@H](Cc2c[nH]c3ccccc23)NC(=O)[C@H](CCCNC(=N)N)NC(=O)[C@H](CCCNC(=N)N)NC(=O)[C@@H](N)CCn2cc(nn2)C[C@@H](C(N)=O)NC1=O | Salmonella enterica serovar Paratyphi B |  |  | 24 h, 37 °C | 15.6 µg/mL |
| CCc1ccn2c(C(=O)NCc3ccc(C)cc3)c(C)nc2c1 | Mycobacterium tuberculosis variant bovis BCG | microbial growth | BCG | 6 days | 0.5 µM |
| CC[C@H](C)[C@H](NC(=O)[C@@H](NC(=O)[C@H](CCCCN)NC(=O)[C@H](CC(=O)O)NC(=O)[C@H](CCCCN)NC(=O)[C@H](Cc1ccccc1)NC(=O)[C@H](Cc1ccccc1)NC(=O)[C@H](CO)NC(=O)[C@H](CCCCN)NC(=O)[C@H](CCSC)NC(=O)[C@H](CCCCN)NC(=O)[C@H](CCCCN)NC(=O)[C@H](Cc1c[nH]c2ccccc12)NC(=O)[C@@H](N)Cc1ccccc1)C(C)C)C(=O)N1CCC[C@H]1C(=O)N[C@@H](CCCCN)C(=O)N[C@H](C(=O)N[C@@H](CCC(N)=O)C(=O)N[C@@H](CCC(N)=O)C(=O)N[C@@H](C)C(=O)N[C@@H](Cc1ccc(O)cc1)C(=O)N[C@@H](CO)C(=O)N[C@@H](CC(C)C)C(=O)N[C@@H](Cc1ccc(O)cc1)C(=O)N[C@@H](CC(N)=O)C(=O)N[C@@H](CCCCN)C(=O)N[C@@H](CC(C)C)C(=O)N[C@@H](CCC(N)=O)C(=O)N[C@@H](Cc1c[nH]cn1)C(=O)N[C@@H](CCCCN)C(=O)N[C@@H](CC(C)C)C(N)=O)C(C)C | Mycolicibacterium smegmatis | ATP luminescence | ATCC 607 | 48 h | 3.12 µM |
| O=C(NC12CC3CC(CC(C3)C1)C2)c1cc2cc(Cl)ccc2[nH]1 | Moraxella catarrhalis | microbial growth, broth dilution | 1502 |  | > 64 µM |
| Cc1ccc2nc(C)c(C(=O)NCc3ccccc3)n2c1 | Mycobacterium tuberculosis variant bovis BCG | microbial growth | BCG | 6 days | 1 µM |
| c1cc2c(s1)CCOC21CCN(Cc2ccc3c(c2)OCCO3)CC1 | Mycobacterium tuberculosis variant bovis BCG | microbial growth | BCG |  | 1.6 µM |
| CC(C)=CCc1cc(-c2coc3cc(O)c(CC=C(C)C)c(O)c3c2=O)ccc1O | Salmonella enterica serovar Typhi |  | DMST 22842 | up to 128 µg/mL | inactive |
| N=C(N)NCCC[C@@H]1NC(=O)[C@H](CCCNC(=N)N)NC(=O)[C@H](CCCNC(=N)N)NC(=O)[C@H](CCCNC(=N)N)NC(=O)[C@H](Cc2c[nH]c3ccccc23)NC(=O)[C@H](CCCNC(=N)N)NC(=O)[C@H](CCCNC(=N)N)NC(=O)[C@@H](N)CCCCn2cc(nn2)C[C@@H](C(N)=O)NC1=O | Salmonella enterica serovar Paratyphi B |  |  | 24 h, 37 °C | 15.6 µg/mL |
| CNc1nc(SC)nc2ccccc12 | Mycobacterium tuberculosis variant bovis BCG | microbial growth | BCG |  | 0.3 µM |
| Cc1ccc2nc(C)c(C(=O)C(=O)NCc3ccccc3)n2c1 | Mycobacterium tuberculosis variant bovis BCG | microbial growth | BCG | 6 days | 29 µM |
| CC[C@H](C)[C@@H]1NC(=O)[C@H](CC(C)C)NC(=O)[C@@H](NC(=O)[C@H](CO)NC(=O)[C@H](CCCNC(=N)N)NC(=O)[C@@H](N)CO)CSSC[C@H](NC(=O)[C@H](CO)NC(=O)[C@H](CCCNC(=N)N)NC(=O)[C@@H](N)CO)C(=O)N[C@@H](CC(C)C)C(=O)N[C@@H]([C@@H](C)CC)C(=O)N[C@@H](C(C)C)C(=O)N[C@H](C(=O)N[C@@H](CCC(N)=O)C(=O)N[C@@H](CCCNC(=N)N)C(=O)N[C@@H](CC(C)C)C(=O)N[C@@H](Cc2ccccc2)C(N)=O)CSSC[C@@H](C(=O)N[C@@H](CCC(N)=O)C(=O)N[C@@H](CCCNC(=N)N)C(=O)N[C@@H](CC(C)C)C(=O)N[C@@H](Cc2ccccc2)C(N)=O)NC(=O)[C@H](C(C)C)NC1=O | Candida parapsilosis | broth microdilution | ATCC 22019 |  | 39 µg/mL |
| CCc1ccc([C@@H]2C[C@H](C(F)(F)F)n3ncc(C(=O)NCc4ccc(OC)cc4)c3N2)cc1 | Moraxella catarrhalis | microbial growth, broth dilution | 1502 |  | 8 µM |
| CC(C)=CCc1cc([C@@H]2CC(=O)c3c(O)cc(O)c(CC=C(C)C)c3O2)cc(CC=C(C)C)c1O | Salmonella enterica serovar Typhi |  | DMST 22842 | up to 128 µg/mL | inactive |

A few entries again:
| SMILES | organism | assay | system | setting | MIC |
| --- | --- | --- | --- | --- | --- |
| N=C(N)NCCC[C@@H]1NC(=O)[C@H](CCCNC(=N)N)NC(=O)[C@H](CCCNC(=N)N)NC(=O)[C@H](CCCNC(=N)N)NC(=O)[C@H](Cc2c[nH]c3ccccc23)NC(=O)[C@H](CCCNC(=N)N)NC(=O)[C@H](CCCNC(=N)N)NC(=O)[C@@H](N)CCn2cc(nn2)C[C@@H](C(N)=O)NC1=O | Salmonella enterica serovar Paratyphi B |  |  | 24 h, 37 °C | 15.6 µg/mL |
